# Published values gathered from unrelated publications.
# Each line is one published result; not all experiments were run side by side. ± marks the error that the study gave.
SMILES,assay,system,conditions,how to read,measurement,result
CC(=CCC(O)C(C)=Cc1csc(C)n1)CC=CC(C)C(O)C(C)C(=O)C(C)(C)C(O)CC(=O)O (stereo not drawn),,"human, plasma","intravenous infusion, 48 mg/m2 KOS-1584, 3 h infusion, cycle 1",,Cmax,46.2 ± 1.84 ng/mL
CC(C)[C@H](NC(=O)CNC(=O)[C@H](CCC(N)=O)NC(=O)[C@H](C)N)C(=O)O,,human,30 mg/kg single dose,,subjects with moderate adverse events,0%
CC[C@H](C)[C@H](NC(=O)[C@H](Cc1ccccc1)NC(=O)[C@H](CC(=O)O)NC(=O)[C@H](CCCNC(=N)N)NC(=O)[C@H](Cc1ccccc1)NC(=O)[C@H](Cc1ccccc1)NC(=O)[C@H](CCCCN)NC(=O)[C@H](CO)NC(=O)[C@H](CC(C)C)NC(=O)[C@H](CCCNC(=N)N)NC(=O)[C@H](CCSC)NC(=O)[C@H](C)N)C(=O)N[C@@H](CN)C(=O)N[C@@H](CCC(N)=O)C(=O)N[C@@H](CCCNC(=N)N)C(=O)N[C@@H](CCCCN)C(=O)N[C@@H](CCCCN)C(=O)O,circular dichroism,20% TFE in PBS,"200 µM, pH 7.4, 25 °C",,helicity,19%
COc1ccc(C)cc1NC(=O)OC1CC2CCCC(C1)N2Cc1ccc(CC[18F])cc1 (stereo not drawn),,"BALB/c mice, EMT6 tumour",30 min,relative to: tumour over muscle,tumour to tissue ratio,1.32
CC(C)[C@H](NC(=O)CNC(=O)[C@H](CCC(N)=O)NC(=O)[C@H](C)N)C(=O)O,,healthy male volunteers,"15, 45, 90 mg/kg/h",,subjects with adverse event,29%
[2H]C([2H])([2H])C([2H])([2H])C([2H])([2H])OC(C(=O)OC1CCNCC1)(c1ccccc1)c1ccccc1,,"healthy Japanese male subjects, plasma","oral, 12 mg once daily, day 1, fed, mean",,Cmax,27.2 ng/mL
O=C(O)CC[C@H](NC(=O)O[C@@H](CCCCNC(=O)c1ccc([18F])cc1)C(=O)O)C(=O)O,,"mouse, PC-3 PIP/flu xenografts, lung",60 min,,tissue uptake,0.85 ± 0.55 %ID/g
CC[C@H](C)[C@@H]1NC(=O)[C@H](CCCCN)NC(=O)[C@H](CCCCN)NC(=O)[C@H](Cc2c[nH]c3ccccc23)NC(=O)[C@H](CC(C)C)NC(=O)[C@@H]2CCCN2C(=O)[C@H](C)NC(=O)CNC(=O)CNC(=O)[C@H](CO)NC(=O)CNC(=O)CNC(=O)[C@H](CO)NC(=O)[C@H](CCC(=O)O)NC(=O)[C@H](CC(C)C)NC(=O)[C@H](CC(C)C)NC(=O)[C@H](CCCCN)NC(=O)[C@H](CCCCN)NC(=O)[C@H]([C@@H](C)CC)NC(=O)[C@H]([C@@H](C)CC)NC(=O)[C@H](CCCCN)NC(=O)[C@H](CCCCN)NC(=O)[C@H](Cc2c[nH]c3ccccc23)NC(=O)[C@H](CC(C)C)NC(=O)[C@@H]2CCCN2C(=O)CNC(=O)CNC(=O)[C@@H](NC(=O)CN)CSSC[C@@H](C(N)=O)NC(=O)[C@H](CC(C)C)NC(=O)[C@H](CCCCN)NC(=O)[C@H](CCCCN)NC(=O)[C@H]([C@@H](C)CC)NC1=O,,25% human serum,"50 µM, 24 h",relative to: 0 h control,remaining intact peptide,53.6 ± 4.9%
CC[C@H](C)C(=O)N1CCC(NC(=O)Nc2ccc(OC(F)(F)F)c(F)c2)CC1,,healthy volunteers,"oral, 24 mg single dose",,subjects with limb injury TEAE,0%
O=P1(NCCCl)NCCCO1 (stereo not drawn),,"rat, plasma","intravenous, 10 mg/kg, added: ketoconazole 20 mg/kg oral 50 min before",,MRT(0-t),5.32 ± 0.702 h
CCCCCCCCCCCCC(=O)O.O=C1CCCC2C3CCCN4CCCC(CN12)C34 (stereo not drawn),electrical conductivity,water,303.15 K,,entropic term −TΔS of aggregation,-32.9 kJ/mol
CCCCCc1cc(O)c2c(c1)OC(C)(C)C1CCC(C(=O)OC3OC(C(=O)O)C(O)C(O)C3O)=CC21 (stereo not drawn),,human liver and HEK293 microsomes,"50 µM, 30 min",relative to: other cannabinoids,"fu,inc relative to other cannabinoids",~10 fold
CN(C)C(CNC(=O)Nc1cc(C(F)(F)F)ccc1N1CCOCC1)c1ccncc1 (stereo not drawn),,"mouse, serum","intraperitoneal, 360 mg/kg single dose",,serum iron,137 µg/dL
CN[C@](C)(C[18F])C(=O)O,,"SCID mouse U87 xenograft, heart","60 min, post injection",,tissue uptake,3 ± 1.4 %ID/g
CCN(Cc1ccccc1)C(=O)CCc1nc(CN2CCN(C(=O)Cc3ccc(OC)c(OC)c3)CC2)no1,,"rat, brain","intravenous, 1 mg/kg, 2 h",,concentration,2 ng/g
CC(C)[C@]12O[C@H]1[C@@H]1O[C@]13[C@]1(O[C@H]1C[C@H]1c4c(C(=O)c5ccccc5)oc(OC(=O)c5ccccc5)c4CC[C@@]13C)[C@@H]2O,,"Sprague Dawley rat, male","intravenous, single injection",,MTD,4.5 mg/kg
COC(=O)C[C@](O)(CCCC(C)(C)OC(C)=O)C(=O)O[C@@H]1C(OC)=C[C@]23CCCN2CCc2cc4c(cc2[C@H]13)OCO4,,"CD1 mouse, large intestine","subcutaneous, 1 mg/kg, 2 h",,tissue concentration,221 ng/mL
CC(COC(=O)c1ccccc1)OC(=O)C(N)C(C)C (mixture of isomers),,isotonic buffer,"pH 4.0, 37 °C",,half-life,> 1800 min
CCc1cnc(NC(=O)c2cc(S(=O)(=O)N3CCOCC3)ccc2N(C)C2CCCC2)s1,,"mouse, HCC827-GR xenograft","ip, 10 mg/kg",,tolerability,not toxic
CC(C)C[C@H](NC(=O)[C@H](CCCCN)NC(=O)[C@H](CCC(=O)O)NC(=O)[C@H](C)NC(=O)[C@@H](NC(=O)[C@H](CCCCN)NC(=O)[C@H](CC(=O)O)NC(=O)[C@H](Cc1ccc(O)cc1)NC(=O)[C@H](Cc1ccccc1)NC(=O)[C@H](C)NC(=O)[C@H](CCCCN)NC(=O)[C@H](CC(C)C)NC(=O)[C@H](Cc1c[nH]c2ccccc12)NC(=O)[C@@H](N)CC(=O)O)C(C)C)C(=O)N[C@@H](CCCCN)C(=O)N[C@@H](CCC(=O)O)C(=O)N[C@@H](C)C(=O)N[C@@H](Cc1ccccc1)C(=O)N1CCC[C@H]1C(=O)N[C@@H](CC(=O)O)C(=O)N[C@@H](Cc1c[nH]c2ccccc12)C(=O)N[C@@H](C)C(=O)N[C@@H](CCCCN)C(=O)N[C@@H](C)C(=O)N[C@@H](C)C(=O)N[C@@H](Cc1ccc(O)cc1)C(=O)N[C@@H](CC(=O)O)C(=O)N[C@@H](CCCCN)C(=O)N[C@@H](C)C(=O)N[C@@H](C)C(=O)N[C@@H](CCC(=O)O)C(=O)N[C@@H](CCCCN)C(=O)N[C@@H](C)C(=O)N[C@@H](CCCCN)C(=O)N[C@@H](CCC(=O)O)C(=O)N[C@@H](C)C(=O)N[C@@H](C)C(=O)O,,"cynomolgus monkey female, plasma","intravenous infusion, 25 mg/kg every other day, day 27",,half-life,372 min
[3H]c1sc(C)nc1C=C(C)C1CC2C(CCCC(C)C(O)C(C)C(=O)C(C)(C)C(O)CC(=O)O1)N2CCO (stereo not drawn),whole-body autoradiography,"CD2F1 mice, intestine contents","intravenous, 2.2 nmol/kg, 48 h",,radioactivity in tissue,10.2 ± 8.4 µg-eq/g

# Some of these lines once more:
SMILES,assay,system,conditions,how to read,measurement,result
CN[C@](C)(C[18F])C(=O)O,,"SCID mouse U87 xenograft, heart","60 min, post injection",,tissue uptake,3 ± 1.4 %ID/g
CCN(Cc1ccccc1)C(=O)CCc1nc(CN2CCN(C(=O)Cc3ccc(OC)c(OC)c3)CC2)no1,,"rat, brain","intravenous, 1 mg/kg, 2 h",,concentration,2 ng/g
CC(C)[C@]12O[C@H]1[C@@H]1O[C@]13[C@]1(O[C@H]1C[C@H]1c4c(C(=O)c5ccccc5)oc(OC(=O)c5ccccc5)c4CC[C@@]13C)[C@@H]2O,,"Sprague Dawley rat, male","intravenous, single injection",,MTD,4.5 mg/kg
